Measured values collected from several papers.
Each numbered part is a random draw from the data of one study; scales do not carry over between parts. Substitutions count along the parent as printed.
Sequence of UniProt P11802 (whole entry, looked up): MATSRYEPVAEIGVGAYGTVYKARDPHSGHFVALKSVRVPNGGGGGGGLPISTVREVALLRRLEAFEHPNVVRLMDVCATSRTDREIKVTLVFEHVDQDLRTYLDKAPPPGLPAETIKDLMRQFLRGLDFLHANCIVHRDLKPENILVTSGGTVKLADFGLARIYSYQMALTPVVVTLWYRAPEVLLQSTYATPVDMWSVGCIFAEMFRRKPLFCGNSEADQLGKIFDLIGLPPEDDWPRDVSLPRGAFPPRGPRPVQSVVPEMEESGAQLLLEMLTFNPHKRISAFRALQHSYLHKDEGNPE

Study 1 — method: protein-binding microarray; molecule type: double-stranded DNA, one strand shown; medium: in vitro; tested at: 2200 nM top; notes: 60-bp whole probe; added: salmon DNA 0.4 mg/ml; relative to: random background probes; reading: higher = stronger binding; constant ends, left off below: GCCTAGCAC … GTCTTGATTCGCTTGACGCTGCTG
Target: Interferon regulatory factor 7, full length, phosphomimetic (IRF7, Homo sapiens, UniProt Q92985, residues 1-503, S471D/S472D/S475D/S476D/S477D/S483D/S484D/S487D)
Target sequence (chain): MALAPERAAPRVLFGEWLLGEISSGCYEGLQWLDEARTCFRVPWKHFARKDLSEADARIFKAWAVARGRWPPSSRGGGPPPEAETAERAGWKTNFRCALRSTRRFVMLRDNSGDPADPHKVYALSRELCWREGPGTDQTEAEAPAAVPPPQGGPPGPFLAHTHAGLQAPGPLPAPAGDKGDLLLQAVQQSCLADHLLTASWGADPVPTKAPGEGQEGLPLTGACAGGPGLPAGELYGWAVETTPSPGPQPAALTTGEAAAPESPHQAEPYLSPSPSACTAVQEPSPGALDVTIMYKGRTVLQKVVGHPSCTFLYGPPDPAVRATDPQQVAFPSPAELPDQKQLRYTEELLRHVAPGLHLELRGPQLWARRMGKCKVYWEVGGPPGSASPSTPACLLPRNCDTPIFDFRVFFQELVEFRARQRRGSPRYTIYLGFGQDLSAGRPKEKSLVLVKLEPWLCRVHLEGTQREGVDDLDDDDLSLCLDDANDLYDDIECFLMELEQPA
Strand	fitted relative affinity [z-score]
GACCGACTGCTTTTCCTGACGTGCTAG	0.926
TGAGGACTGGACTATCGGTTAGTGCTA	-0.492
TTAGGTATCGTTCTCGGTTAGTGCTAG	1.33
TCACTTTGCTTTCTCCCACTGTGCTAG	4.43
TCATTTTAAGTTCTCTGACTGTGCTAG	1.66
CTAGGTTTCGGTTTCGGTTAGTGCTAG	17.9
CTCTAAGACACAAGATCAGAGTGCTAG	-0.55
TGGGGCTGTATCATCTGAAGGTGCTAG	-0.752

Study 2 — method: aptamer microarray, sandwich; molecule type: DNA with 2'F-ANA; medium: in vitro; tested at: 200 nM; added: Cy3 exosite-II aptamer, 400 nM; reading: higher = stronger binding; strand: GGTTGGTGTGGTTGG
Target: Prothrombin, mature alpha-thrombin (F2, Homo sapiens, UniProt P00734)
Notes: whole 15-mer aptamer, many near background
Modification	mean fluorescence intensity [a.u.]
2'F-ANA at 2 3 5 8 11 12 13	169
2'F-ANA at 1 5 8 10 13 15	55.2
2'F-ANA at 7 9 11 13 14 15	181
2'F-ANA at 1 6 8 11 13 14 15	61.4
2'F-ANA at 2 4 8 10 12 13 14 15	59.7
2'F-ANA at 1 2 3 6 9 11 15	151
2'F-ANA at 1 2 5 6 8 9 10 11 13 14	70
2'F-ANA at 1 6 8 9 11	143

Study 3 — target: BATF, bZIP domain (human); method: DHFR protein complementation; medium: yeast; relative to: wild-type JUN-FOS pair; reading: higher = stronger binding
Notes: single substitutions, most at no-binding floor
Starting sequence: JUN, bZIP domain (human); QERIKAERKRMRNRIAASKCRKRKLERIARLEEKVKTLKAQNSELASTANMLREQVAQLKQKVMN; partner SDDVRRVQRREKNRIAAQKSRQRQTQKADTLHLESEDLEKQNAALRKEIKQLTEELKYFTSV
Substitution	binding fitness [natural log]
A29N	-0.0593
E54M	-0.0646
A49F	-0.583
M51G	0.0075
N42Q	-0.0645
V56W	-0.47
T48A	-0.0621
R30P	0.0872

Further values, each from its own experiment
SMILES	target	assay	setting	quantity	result
Cc1nc(N2CC[C@@H](O)C2)ncc1-c1cc(C(F)(F)F)cc2[nH]ncc12	Cyclin-dependent kinase 4, with cyclin D3 (CDK4, Homo sapiens, UniProt P11802)	binding, competition with immobilised ligand	1 µM	remaining binding	88%

For quick reference, copied from above (study 2):
Modification	mean fluorescence intensity [a.u.]
2'F-ANA at 1 2 3 6 9 11 15	151
2'F-ANA at 1 6 8 9 11	143
